Measurements of several laboratories.
Lines come from different studies, so protocols differ. Several values in a cell are separate wells, animals, samples, runs or records. ± marks the error that the study gave.

O=C(N[C@H](Cc1c[nH]c2ccccc12)C(=O)Nc1ccncc1)c1ccc(N2CCN(c3ccc(F)cc3F)CC2)cc1F — concentration (Swiss Webster mouse, female, plasma; oral, 50 mg/kg, 8 h, 20% HPβCD vehicle): 1670 nM
CCc1c(-c2ccccc2)c(-c2ccccc2)nn1-c1ccccc1-c1cccc(OCC(=O)O)c1 — concentration (Sprague-Dawley rat, bone homogenate; oral, 10 mg/kg, 4 h): 317 ng/mL and 342 ng/mL
CCCC1CCC(c2ccc(-c3ccc(F)c(F)c3)cc2)CC1 (stereo not shown) — concentration (refers to: compound; human pregnant women, male fetuses, maternal serum; dose not given, paired maternal-cord samples, mean): 0.45 ng/mL
O=C(N[C@H](Cc1c[nH]c2ccccc12)C(=O)Nc1ccncc1)c1ccc(-c2ccc(F)c(C(F)(F)F)c2)cc1F — concentration (Swiss Webster mouse, female, brain; oral, 50 mg/kg, 2 h, 20% HPβCD vehicle): 100 nM
CC=CC1CCC(C2CCC(CCC)CC2)CC1 (stereo not shown) — concentration (refers to: compound; human pregnant women, female fetuses, maternal serum; dose not given, paired maternal-cord samples, mean): 1.08 ng/mL
O=C(N[C@H](Cc1c[nH]c2ccccc12)C(=O)Nc1ccncc1)c1ccc(-c2ccc(F)c(Cl)c2)cc1F — concentration (Swiss Webster mouse, female, brain; oral, 50 mg/kg, 2 h, 20% Kolliphor vehicle): 700 nM
CCCCOc1ccc([C@H]2CC[C@H](CCC)CC2)c(F)c1F — concentration (refers to: compound; human pregnant women, male fetuses, maternal serum; dose not given, paired maternal-cord samples, mean): 6.1 ng/mL
Cc1cnc(N2CC3(CCOCC3)C2)c(C(=O)Nc2ccc(C(=O)N3CCc4cc(C(=O)Nc5c(C)cccc5F)sc4-c4ccccc43)cc2)c1 — concentration (human, nasal epithelial lining fluid; inhaled, 5 mg twice daily, 6 h): 23600 ng/mL
COc1ccc2c(=O)n(C)c(-c3ccccc3)nc2c1 — concentration (Sprague-Dawley rat, male, large intestine; oral, 30 mg/kg, 4 h): 3870 ng/mL
CN(C(=O)n1cnc(-c2cccnc2)c1)C1CCCCC1 — concentration (Wistar rat, cerebral cortex; oral, 10 mg/kg/day of BIA 10-2474, 48 h, repeated 5 days): 8.8 ± 0.3 ng/g
O=C(N[C@H](Cc1c[nH]c2ccccc12)C(=O)Nc1ccncc1)c1ccc(-c2cc(C(F)(F)F)ccc2F)cc1F — concentration (Swiss Webster mouse, female, lung; oral, 50 mg/kg, 8 h, 20% Kolliphor vehicle): 38300 nM
CCCCc1ccc(C#Cc2ccc(OCC)cc2)cc1 — concentration (refers to: compound; human pregnant women, male fetuses, maternal serum; dose not given, paired maternal-cord samples, mean): 0.48 ng/mL
CCCOc1ccc([C@H]2CNC(=O)N2c2ccc3[nH]cnc3c2)cc1 — concentration (phase 1 pharmacokinetics; elderly humans, fasted, CSF; oral, 500 mg twice daily, tablet, 12 h after final dose, day 11): 26.9 ng/mL

A few entries again:
CCCC1CCC(c2ccc(-c3ccc(F)c(F)c3)cc2)CC1 (stereo not shown) — concentration (refers to: compound; human pregnant women, male fetuses, maternal serum; dose not given, paired maternal-cord samples, mean): 0.45 ng/mL
